Experimental data collected from several papers.
Numbered parts are unrelated; each lists some results of a single study.

Sample 1 — technique: protein-binding microarray; molecule type: double-stranded DNA, one strand shown; medium: in vitro; tested at: 250 nM; setting: 60-bp whole probe; with: salmon DNA 0.4 mg/ml; baseline: random background probes; direction: higher = stronger binding; all sequences stand within: GCCTAGCAC … GTCTTGATTCGCTTGACGCTGCTG
Target: Interferon regulatory factor 7, full length, phosphomimetic (IRF7, Homo sapiens, UniProt Q92985, residues 1-503, S101K/S471D/S472D/S475D/S476D/S477D/S483D/S484D/S487D)
Residues (chain): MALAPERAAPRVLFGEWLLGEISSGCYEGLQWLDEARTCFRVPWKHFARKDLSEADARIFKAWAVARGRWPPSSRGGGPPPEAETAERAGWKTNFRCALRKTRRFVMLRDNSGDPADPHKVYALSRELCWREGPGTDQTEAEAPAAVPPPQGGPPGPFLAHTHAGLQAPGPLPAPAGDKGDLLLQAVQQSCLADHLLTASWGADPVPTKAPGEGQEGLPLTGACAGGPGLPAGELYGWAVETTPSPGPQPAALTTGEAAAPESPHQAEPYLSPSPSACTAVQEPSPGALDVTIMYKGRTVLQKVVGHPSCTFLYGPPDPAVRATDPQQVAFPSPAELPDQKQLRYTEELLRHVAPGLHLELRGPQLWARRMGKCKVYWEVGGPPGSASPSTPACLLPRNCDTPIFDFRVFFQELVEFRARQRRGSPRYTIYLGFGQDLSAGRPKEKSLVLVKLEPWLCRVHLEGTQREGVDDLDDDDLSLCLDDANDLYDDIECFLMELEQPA
With `TGAGGTTTCGGGTTTCGGTTAGTGCTA` the log fluorescence was 13.1 z-score.
`TTAGGACTTGGGTATCGGTTAGTGCTA` gave a log fluorescence of 0.554 z-score.
The log fluorescence of `TTAGGATTGGGGTATCGGTTAGTGCTA` is reported as 0.584 z-score.
`TGGGAAATTCCTCTGAGGCAGTGCTAG` has a log fluorescence of -0.426 z-score.
`TTAGGTTTGGGTTCCGGTTAGTGCTAG` gave a log fluorescence of 1.9 z-score.
The log fluorescence of `TTAGATTTCAGACTGGTTTAGTGCTAG` is reported as 0.0678 z-score.
For `TTACATTTCGGGTATCGATTAGTGCTA`, the log fluorescence was 1.82 z-score.
`GACGGTTTCGGTTTCGGGATGTGCTAG` gave a log fluorescence of 13.9 z-score.
`TTAGGTATCGGGACTGGATTAGTGCTA` gave a log fluorescence of 0.21 z-score.
`TTAGATCACAGTTTCGATTAGTGCTAG` has a log fluorescence of 8.43 z-score.
With `TTAGGTATCCTCCTCCTTTAGTGCTAG` the log fluorescence was 0.0382 z-score.
The log fluorescence of `GACGGTATCGGGACCGGGGACGTGCTA` is reported as -0.256 z-score.
The log fluorescence of `TCATTTTTAATGAATGAAACTGTGCTA` is reported as 0.719 z-score.
`GCCGATATCGGGACTGGAGACGTGCTA` gave a log fluorescence of -0.0136 z-score.
For `GATGGTATCCTTCTCCTGACGTGCTAG`, the log fluorescence was 0.0865 z-score.
`TTAGGTATCGGACTGGGGTAGTGCTAG` gave a log fluorescence of 0.000126 z-score.
The log fluorescence of `ATACTGAGAAAGCACTGGACGTGCTAG` is reported as 0.116 z-score.
`GACGAACTGGGGTTCCGAGACGTGCTA` has a log fluorescence of -0.357 z-score.
`GACGGTTTCGGACTGGGGGCGTGCTAG` has a log fluorescence of 5.11 z-score.

Sample 2 — technique: universal PBM; molecule type: double-stranded DNA, one strand shown; medium: in vitro; tested at: 600 nM; direction: higher = stronger binding
Target: Sal-like protein 4, full length isoform A (SALL4, Homo sapiens, UniProt Q9UJQ4, residues 1-1053)
UniProt Q9UJQ4, sequence (whole entry, looked up): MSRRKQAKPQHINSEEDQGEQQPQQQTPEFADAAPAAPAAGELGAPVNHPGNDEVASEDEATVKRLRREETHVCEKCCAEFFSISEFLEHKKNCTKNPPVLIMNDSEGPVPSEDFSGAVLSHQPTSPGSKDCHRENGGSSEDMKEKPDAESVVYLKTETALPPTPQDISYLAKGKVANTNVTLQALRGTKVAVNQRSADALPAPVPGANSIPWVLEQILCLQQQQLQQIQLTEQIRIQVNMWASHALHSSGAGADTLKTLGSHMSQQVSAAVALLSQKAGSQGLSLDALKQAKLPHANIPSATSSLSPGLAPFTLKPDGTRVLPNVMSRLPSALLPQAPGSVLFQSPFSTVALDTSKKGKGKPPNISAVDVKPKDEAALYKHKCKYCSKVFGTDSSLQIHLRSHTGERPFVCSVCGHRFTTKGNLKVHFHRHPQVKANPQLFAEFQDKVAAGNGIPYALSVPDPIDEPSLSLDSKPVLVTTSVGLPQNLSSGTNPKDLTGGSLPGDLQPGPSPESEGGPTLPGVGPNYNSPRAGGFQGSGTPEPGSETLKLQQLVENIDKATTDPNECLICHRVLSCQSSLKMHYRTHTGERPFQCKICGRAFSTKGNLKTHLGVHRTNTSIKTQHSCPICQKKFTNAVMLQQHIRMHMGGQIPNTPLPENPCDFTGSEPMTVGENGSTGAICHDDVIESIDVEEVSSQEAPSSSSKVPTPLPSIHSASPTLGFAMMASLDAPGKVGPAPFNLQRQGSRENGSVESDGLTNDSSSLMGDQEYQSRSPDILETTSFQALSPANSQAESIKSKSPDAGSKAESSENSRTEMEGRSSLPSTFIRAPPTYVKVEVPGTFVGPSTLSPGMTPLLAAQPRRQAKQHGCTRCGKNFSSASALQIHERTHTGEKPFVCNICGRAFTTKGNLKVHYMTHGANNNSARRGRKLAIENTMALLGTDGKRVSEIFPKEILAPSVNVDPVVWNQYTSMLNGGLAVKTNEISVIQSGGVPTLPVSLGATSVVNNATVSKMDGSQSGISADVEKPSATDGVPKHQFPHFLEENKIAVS
Setting: 8-mer, flanks averaged, mean of replicates
The E-score of `AACCCTAG` is reported as -0.0312.
`GATACTCA` has an E-score of 0.046.
For `CAGCTTCG`, the E-score was -0.124.
With `AGACTTTG` the E-score was 0.0401.
For `ATAAATGC`, the E-score was 0.255.
`AAAGATGT` gave an E-score of 0.205.
With `CACGGGCG` the E-score was -0.341.
With `GATGCCGA` the E-score was -0.132.
The E-score of `CATGTAAC` is reported as 0.193.
`TAGCGCGA` has an E-score of -0.119.
With `CCATCGTA` the E-score was 0.114.
For `GAAGGCTC`, the E-score was -0.258.
With `TGGCCTAA` the E-score was 0.0169.
With `AGACCTTC` the E-score was -0.104.
The E-score of `CCAGGTAC` is reported as -0.298.
The E-score of `ACATAAGC` is reported as 0.232.
`AGCAGTTA` gave an E-score of 0.0668.
The E-score of `GCGCGTCC` is reported as -0.349.
`GTCCACCA` has an E-score of -0.214.
`CCCTAGTC` has an E-score of -0.194.
`CAGAGAGA` gave an E-score of -0.155.
`GTCTGCAC` gave an E-score of -0.122.
`CAGCGCCG` gave an E-score of -0.365.
With `GGCGAGAC` the E-score was -0.312.

Sample 3 — technique: protein binding microarray; molecule type: double-stranded DNA, one strand shown; medium: in vitro; tested at: not given; baseline: not given; direction: higher = stronger binding
Target: Histone acetyltransferase KAT6A, both winged helices, GST fusion (KAT6A, Homo sapiens, UniProt Q92794, residues 1-181)
Setting: 8-mer, flanks averaged, mean of 2 arrays, mostly near background
Construct (chain): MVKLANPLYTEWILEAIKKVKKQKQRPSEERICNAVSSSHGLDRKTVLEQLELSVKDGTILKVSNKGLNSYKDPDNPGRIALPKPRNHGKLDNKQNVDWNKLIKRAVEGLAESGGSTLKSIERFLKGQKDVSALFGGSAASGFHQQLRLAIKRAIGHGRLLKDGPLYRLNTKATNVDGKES
With `AGTTCGAA` the E-score was -0.0201.
With `GAAACTAA` the E-score was -0.0888.
`GCGGGTCA` has an E-score of 0.184.
For `CGGCGGTA`, the E-score was 0.359.
With `ACACATTC` the E-score was -0.0554.
With `AATCTTGT` the E-score was -0.106.
`GTGCGATA` has an E-score of 0.0272.
`GCGCTGTA` gave an E-score of 0.258.
For `CGGCGCCG`, the E-score was 0.41.
`ATTATACC` has an E-score of 0.0703.
The E-score of `CAGGATGC` is reported as -0.102.
The E-score of `CACGTACC` is reported as -0.0161.
`ACTCGTCG` gave an E-score of -0.116.
With `GGTGCGGA` the E-score was 0.126.
`CAGACCCG` has an E-score of 0.209.
The E-score of `CAACAATG` is reported as -0.0206.
`TGTTCAAA` gave an E-score of 0.021.
`TCCCGAAA` has an E-score of -0.0418.
`GCCGCGCA` gave an E-score of 0.364.
For `TATAGCGA`, the E-score was 0.022.
`CCGGAGAG` gave an E-score of 0.0634.
The E-score of `CCGCTTTA` is reported as 0.177.
`CTCTCAAC` has an E-score of -0.0789.
With `ATACGAAA` the E-score was -0.078.
For `CTACGCAC`, the E-score was 0.0603.

Sample 4 — technique: RNA Bind-n-Seq; molecule type: RNA; medium: in vitro; tested at: 365 nM; baseline: no-protein control; direction: higher = stronger binding
Target: RNA binding protein fox-1 homolog 2, RRM domain, GST-SBP tag (RBFOX2, Homo sapiens, UniProt O43251-10, residues 100-194)
Setting: natural RNA segment, single round, ends assumed
Construct (chain): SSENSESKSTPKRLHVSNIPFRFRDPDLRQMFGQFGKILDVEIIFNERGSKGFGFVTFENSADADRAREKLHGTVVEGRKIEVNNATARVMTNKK
`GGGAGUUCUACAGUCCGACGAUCGACAGAGGGACGAUGUUGAGUCUAGAAGGGCACAAUAUGCCAGAGUUUUAUGGCCAGUGAUCCUCAAAUCCAUUGGCUGUUUGAAGACCCUGUCCUCACUUCUCCUUUUUUGGAAUUCUCGGGUGCCAA`: “RBNS enrichment (R)” 0.37.
Under “RBNS enrichment (R)”, `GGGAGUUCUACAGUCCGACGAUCCAUUUGUAAAUGCAAGAUGCAUUGUAAAAUAAAGUUAAGCUUGUUUUUUUUUAAAAAAAACAAAGCAACAAAUUGACUAGAUAUAGGAUAAUUGAAACAUGUUAAAACAUUGGAAUUCUCGGGUGCCAA` is recorded as 0.428.
Under “RBNS enrichment (R)”, `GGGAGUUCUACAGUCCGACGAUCAUGCUAAACUAAGUCAACAGUGUCUCAGAACUGAAUAACUGCAGUGACUUGAUGCUCUAAAUCAUUGUAGGAUUUACCGCUAGAUGGUUUUGAACCCUUGAACCUGUGAUUGGAAUUCUCGGGUGCCAA` is recorded as 0.291.
`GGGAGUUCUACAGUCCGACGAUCAAAAGCUUGACUCUGAUUCACAGUUUUGUAUGUAGCUGGUUUGACGUAGUCUUUUGUAUUUUCCCUGCCGAAGUGAAUUGUUGGAGAAUGUAAACCGCCUCCACGUGGCGUGGAAUUCUCGGGUGCCAA` — result for “RBNS enrichment (R)”: 4.79.
`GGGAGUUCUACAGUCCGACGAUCAGAUAGAGCUGGGUGGCCUGUUUCUGCAGCCCUUGGGCAGUUCUCACUCCUAGGAGAGCCAACCUCGGCUUGUGGGCUGGUGCCCCACAGCUACCUGAGACGGGCAUCGCUGGAAUUCUCGGGUGCCAA` — result for “RBNS enrichment (R)”: 0.302.
For `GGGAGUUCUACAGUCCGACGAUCGUAUGUAUUCAUAUAUUAUUUUUCAUUUUAUUAUUAAGUAAAAGAUAAUUAAAAGUGAAAUUAAAAAUCUUGUAGUUUUUGAUGAAUCUGGAGAUCUAACAUCUGAAUGUUGGAAUUCUCGGGUGCCAA`, “RBNS enrichment (R)” read 0.997.
`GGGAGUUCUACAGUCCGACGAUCCCUUUGUGUUCUCACUUGCAUAAAGCUAUUCAAGGUACUUUUUAAAAGGCAAGGGUUGAUCCCCGCAGCCCUUCUCUGAAUUCUCACUGCUGAUAUCUGAAUGAAGCAACUGGAAUUCUCGGGUGCCAA` — result for “RBNS enrichment (R)”: 0.469.
Under “RBNS enrichment (R)”, `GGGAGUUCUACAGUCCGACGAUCUCCUGGACCCAGGCUUUCCCAUACCACGGGCCCAGGACUGUGGCUCCUUUUCUAAACCACCUCUGGGACUCAGCUCCCCCCGCCAAAAAAAAUGGGUCUCCUUCUGGGCUUGGAAUUCUCGGGUGCCAA` is recorded as 0.787.

For quick reference, copied from above (sample 2):
For `ATAAATGC`, the E-score was 0.255.
With `AGACTTTG` the E-score was 0.0401.
With `AGACCTTC` the E-score was -0.104.
The E-score of `AACCCTAG` is reported as -0.0312.
The E-score of `CCAGGTAC` is reported as -0.298.
`AGCAGTTA` gave an E-score of 0.0668.
With `GGCGAGAC` the E-score was -0.312.
For `GAAGGCTC`, the E-score was -0.258.
With `TGGCCTAA` the E-score was 0.0169.
